Measured values gathered from unrelated publications.
A part holds a random share of what one study measured. Several values in a cell are separate wells, animals, samples, runs or records. Numbers after ± are the reported error.

Series 1
SMILES: COc1ccc(-c2c(Nc3ccccn3)[nH]c3c(C4=CCCCC4)c(-c4ccccc4)nn3c2=O)cc1
Method: immunohistochemistry
Item: symmetric dimethylarginine
Host: human cancer patients
Medium: tumour biopsy
Reference: before treatment
Direction: direction not given
Endpoint: SDMA H-score change
conditions = 100 mg QD; result = -80.9%
conditions = 200 mg QD; result = -98.8%
conditions = 50 mg QD; result = -29.8 ± 17.2%

Series 2
Cell line: A-375
Concentration: 100 µM
Time: 36 h
Endpoint: viability
Compound = CC(=O)OCC1=C(C(=O)O)N2C(=O)[C@@H](NC(=O)Cc3cccs3)[C@H]2SC1; result = 101%
Compound = Cc1c(CNCS(=O)(=O)O)c(=O)n(-c2ccccc2)n1C; result = 112%
Compound = O=C(c1ccc(F)c(F)c1Nc1ccc(I)cc1F)N1CC(O)([C@@H]2CCCCN2)C1; result = 0.743%
Compound = NC[C@H](O)c1ccc(O)c(O)c1; result = 87% and 115%
Compound = [H]/N=C(/N)NS(=O)(=O)c1ccc(N)cc1; result = 118%
Compound = OCCOc1ccc(/C(=C(/CCCl)c2ccccc2)c2ccccc2)cc1; result = 1.91%
Compound = O=C(O)Cc1cc(I)c(Oc2ccc(O)c(I)c2)c(I)c1; result = 55.4%
Compound = Cc1c(N(C)CS(=O)(=O)O)c(=O)n(-c2ccccc2)n1C; result = 106% and 93.1%

Series 3
Organism: Sarcocystis neurona
Effect on: parasite growth
Concentration: 10 µM
Time: 96 h
Reference: untreated
Endpoint: log2 fold change
SMILES = Cc1c(O)c(=O)ccn1C; result = 0.27
SMILES = COc1cc2nc(N3CCN(C(=O)C4COc5ccccc5O4)CC3)nc(N)c2cc1OC (centres unmarked); result = -1.89
SMILES = CC(C)NCC(O)COc1cccc2[nH]ccc12 (centres unmarked); result = 0.39
SMILES = Cc1ncc([N+](=O)[O-])n1CC(C)O (centres unmarked); result = 0.26
SMILES = O=c1n(CCCN2CCN(c3cccc(Cl)c3)CC2)nc2ccccn12; result = 0.32
SMILES = CCC[C@@H]1C[C@@H](C(=O)N[C@@H]([C@H]2O[C@H](SC)[C@H](O)[C@@H](O)[C@H]2O)[C@@H](C)O)N(C)C1; result = -0.26
SMILES = COc1cccc2c1C(=O)c1c(O)c3c(c(O)c1C2=O)C[C@@](O)(C(C)=O)C[C@@H]3O[C@H]1C[C@H](N)[C@H](O)[C@H](C)O1; result = -4.93
SMILES = OC[C@H]1O[C@@H](Oc2cc(O)cc(/C=C/c3ccc(O)cc3)c2)[C@H](O)[C@@H](O)[C@@H]1O; result = 0.28

Single results of other studies
Structure (SMILES) = CNC(=N)NCCC[C@H](NC(=O)[C@H](CC(C)C)NC(=O)NNC(=O)[C@H](Cc1ccccc1)NC(=O)[C@H](CO)NC(=O)[C@H](CC(N)=O)NC(=O)[C@@H](Cc1cccnc1)NC(=O)[C@H](N)Cc1ccc(O)cc1)C(=O)NCC(N)=O; cell line = sample B colorectal tumour organoid; conditions = 0.1 µM; how to read = reference: DMSO; endpoint = viability; result = 109%

Excerpt of the above (series 3):
SMILES = Cc1c(O)c(=O)ccn1C; result = 0.27
SMILES = COc1cc2nc(N3CCN(C(=O)C4COc5ccccc5O4)CC3)nc(N)c2cc1OC (centres unmarked); result = -1.89
